Measurements pooled from the literature.
Each numbered part is a random draw from the data of one study; scales do not carry over between parts.
Sequence of UniProt Q52WX2 (whole entry, looked up): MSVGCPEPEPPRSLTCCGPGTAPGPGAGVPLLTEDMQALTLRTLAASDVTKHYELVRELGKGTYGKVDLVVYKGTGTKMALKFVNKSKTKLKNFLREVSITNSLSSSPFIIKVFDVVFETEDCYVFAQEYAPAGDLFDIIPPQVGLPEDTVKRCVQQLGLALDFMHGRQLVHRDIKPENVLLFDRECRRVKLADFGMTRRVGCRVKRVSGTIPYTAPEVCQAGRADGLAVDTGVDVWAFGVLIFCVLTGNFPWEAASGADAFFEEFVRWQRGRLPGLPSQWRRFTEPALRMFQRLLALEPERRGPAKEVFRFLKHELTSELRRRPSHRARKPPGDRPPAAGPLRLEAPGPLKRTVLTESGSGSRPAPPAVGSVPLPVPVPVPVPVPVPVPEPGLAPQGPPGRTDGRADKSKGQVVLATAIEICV
Sequence of UniProt Q9FGV1 (whole entry, looked up): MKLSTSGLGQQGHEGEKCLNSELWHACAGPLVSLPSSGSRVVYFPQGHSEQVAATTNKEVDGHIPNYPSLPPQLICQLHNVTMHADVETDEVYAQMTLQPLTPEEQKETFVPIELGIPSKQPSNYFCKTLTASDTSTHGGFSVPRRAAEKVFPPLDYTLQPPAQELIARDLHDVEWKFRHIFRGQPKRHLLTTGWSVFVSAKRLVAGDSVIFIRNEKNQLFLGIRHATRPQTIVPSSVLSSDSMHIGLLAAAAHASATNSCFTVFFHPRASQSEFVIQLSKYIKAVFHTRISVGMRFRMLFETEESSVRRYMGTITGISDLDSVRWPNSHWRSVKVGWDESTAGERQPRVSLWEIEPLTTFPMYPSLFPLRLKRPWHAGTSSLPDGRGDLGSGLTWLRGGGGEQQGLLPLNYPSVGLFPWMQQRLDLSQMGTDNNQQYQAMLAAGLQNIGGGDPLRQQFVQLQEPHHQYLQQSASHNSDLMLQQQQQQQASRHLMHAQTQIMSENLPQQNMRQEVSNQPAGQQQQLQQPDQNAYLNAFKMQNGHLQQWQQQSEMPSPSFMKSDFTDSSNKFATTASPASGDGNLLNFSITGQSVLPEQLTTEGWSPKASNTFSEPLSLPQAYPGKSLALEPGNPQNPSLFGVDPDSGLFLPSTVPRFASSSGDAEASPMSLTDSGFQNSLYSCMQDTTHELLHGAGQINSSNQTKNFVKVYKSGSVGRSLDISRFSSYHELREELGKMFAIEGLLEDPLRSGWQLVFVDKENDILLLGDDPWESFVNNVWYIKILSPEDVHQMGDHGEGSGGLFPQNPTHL
Sequence of UniProt Q9M1R4 (whole entry, looked up): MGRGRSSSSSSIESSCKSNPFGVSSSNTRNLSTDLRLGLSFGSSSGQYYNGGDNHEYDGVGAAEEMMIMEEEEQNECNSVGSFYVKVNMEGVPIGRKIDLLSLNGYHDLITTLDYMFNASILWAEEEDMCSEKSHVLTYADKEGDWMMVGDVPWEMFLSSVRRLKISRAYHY
Sequence of UniProt O75460 (whole entry, looked up): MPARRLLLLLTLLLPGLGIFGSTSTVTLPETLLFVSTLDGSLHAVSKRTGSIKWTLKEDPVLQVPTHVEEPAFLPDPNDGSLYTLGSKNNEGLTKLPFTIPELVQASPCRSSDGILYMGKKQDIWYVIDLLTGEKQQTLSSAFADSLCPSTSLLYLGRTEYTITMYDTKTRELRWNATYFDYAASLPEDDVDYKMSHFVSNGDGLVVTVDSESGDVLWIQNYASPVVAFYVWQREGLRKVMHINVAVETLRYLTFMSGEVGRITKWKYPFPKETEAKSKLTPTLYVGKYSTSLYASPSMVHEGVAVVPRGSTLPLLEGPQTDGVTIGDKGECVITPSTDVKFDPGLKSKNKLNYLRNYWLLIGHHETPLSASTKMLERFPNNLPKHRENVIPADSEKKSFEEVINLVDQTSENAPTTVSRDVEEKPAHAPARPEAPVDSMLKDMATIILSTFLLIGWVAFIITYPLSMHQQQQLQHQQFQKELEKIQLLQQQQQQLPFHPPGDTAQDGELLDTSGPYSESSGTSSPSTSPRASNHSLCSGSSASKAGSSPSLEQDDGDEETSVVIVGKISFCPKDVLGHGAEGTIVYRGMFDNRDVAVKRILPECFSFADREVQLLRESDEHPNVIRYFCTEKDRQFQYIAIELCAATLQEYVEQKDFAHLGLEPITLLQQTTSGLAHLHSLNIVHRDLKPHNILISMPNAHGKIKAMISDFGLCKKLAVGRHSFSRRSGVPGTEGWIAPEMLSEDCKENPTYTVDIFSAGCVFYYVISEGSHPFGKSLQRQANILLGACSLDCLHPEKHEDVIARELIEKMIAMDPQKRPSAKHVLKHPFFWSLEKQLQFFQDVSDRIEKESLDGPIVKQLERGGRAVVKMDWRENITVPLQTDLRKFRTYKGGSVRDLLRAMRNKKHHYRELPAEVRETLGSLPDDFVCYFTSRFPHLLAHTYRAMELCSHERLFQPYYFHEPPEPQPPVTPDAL
Sequence of UniProt P52333 (whole entry, looked up): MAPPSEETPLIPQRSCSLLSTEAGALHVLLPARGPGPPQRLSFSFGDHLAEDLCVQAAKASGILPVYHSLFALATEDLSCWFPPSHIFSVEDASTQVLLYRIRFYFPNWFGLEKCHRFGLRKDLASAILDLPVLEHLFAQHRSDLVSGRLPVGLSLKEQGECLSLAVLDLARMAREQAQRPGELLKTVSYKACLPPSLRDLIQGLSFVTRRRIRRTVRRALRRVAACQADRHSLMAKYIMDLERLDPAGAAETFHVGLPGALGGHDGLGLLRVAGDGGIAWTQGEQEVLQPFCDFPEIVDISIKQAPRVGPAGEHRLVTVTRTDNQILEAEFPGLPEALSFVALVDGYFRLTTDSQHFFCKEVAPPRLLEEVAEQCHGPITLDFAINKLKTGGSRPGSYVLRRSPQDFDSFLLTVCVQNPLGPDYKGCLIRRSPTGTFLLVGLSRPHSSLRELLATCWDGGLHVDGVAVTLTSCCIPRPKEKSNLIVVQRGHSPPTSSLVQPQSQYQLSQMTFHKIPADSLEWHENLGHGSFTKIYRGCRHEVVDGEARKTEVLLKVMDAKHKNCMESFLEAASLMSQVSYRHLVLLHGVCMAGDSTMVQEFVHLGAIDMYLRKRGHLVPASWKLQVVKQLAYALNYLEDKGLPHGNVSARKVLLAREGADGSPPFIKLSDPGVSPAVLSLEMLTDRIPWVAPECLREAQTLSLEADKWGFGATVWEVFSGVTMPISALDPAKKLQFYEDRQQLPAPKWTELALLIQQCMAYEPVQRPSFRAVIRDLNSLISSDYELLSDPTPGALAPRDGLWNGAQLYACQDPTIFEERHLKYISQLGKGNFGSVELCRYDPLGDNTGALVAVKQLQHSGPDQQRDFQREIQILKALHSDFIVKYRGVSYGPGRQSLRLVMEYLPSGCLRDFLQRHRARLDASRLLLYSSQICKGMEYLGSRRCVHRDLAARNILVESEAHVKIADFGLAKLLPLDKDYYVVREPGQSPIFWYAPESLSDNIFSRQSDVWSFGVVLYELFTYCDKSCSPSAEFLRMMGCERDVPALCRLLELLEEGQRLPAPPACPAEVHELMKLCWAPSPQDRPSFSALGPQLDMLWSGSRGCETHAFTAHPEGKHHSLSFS
Sequence of UniProt Q9C5X0 (whole entry, looked up): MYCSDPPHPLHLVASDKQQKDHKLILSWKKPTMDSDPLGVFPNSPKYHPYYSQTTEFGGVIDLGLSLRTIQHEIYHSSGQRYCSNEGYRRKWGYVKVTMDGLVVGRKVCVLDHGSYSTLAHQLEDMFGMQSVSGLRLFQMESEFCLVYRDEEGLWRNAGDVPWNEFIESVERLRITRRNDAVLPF
Sequence of UniProt Q93WC4 (whole entry, looked up): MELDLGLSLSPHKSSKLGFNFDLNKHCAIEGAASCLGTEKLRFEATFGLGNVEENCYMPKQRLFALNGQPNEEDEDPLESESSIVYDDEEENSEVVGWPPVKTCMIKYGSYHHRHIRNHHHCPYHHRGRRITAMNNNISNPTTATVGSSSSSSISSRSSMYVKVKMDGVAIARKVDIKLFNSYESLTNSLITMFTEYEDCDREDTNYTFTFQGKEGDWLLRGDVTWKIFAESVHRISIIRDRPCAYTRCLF
Sequence of UniProt P49841 (whole entry, looked up): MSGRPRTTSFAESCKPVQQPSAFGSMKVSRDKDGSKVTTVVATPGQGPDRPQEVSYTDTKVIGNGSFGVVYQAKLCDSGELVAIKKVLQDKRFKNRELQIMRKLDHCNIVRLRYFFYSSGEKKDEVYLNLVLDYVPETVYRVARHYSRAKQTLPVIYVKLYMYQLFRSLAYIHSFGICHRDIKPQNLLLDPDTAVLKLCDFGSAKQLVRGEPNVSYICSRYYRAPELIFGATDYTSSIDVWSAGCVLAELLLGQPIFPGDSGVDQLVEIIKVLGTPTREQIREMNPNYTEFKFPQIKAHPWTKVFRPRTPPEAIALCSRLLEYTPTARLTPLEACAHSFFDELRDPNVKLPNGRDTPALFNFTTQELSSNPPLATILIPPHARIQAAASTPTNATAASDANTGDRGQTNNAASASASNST

Block 1
SMILES: COc1ccc2c(O[C@@H]3C[C@H]4C(=O)N[C@]5(C(=O)O)CC5/C=C\CCCCC[C@H](NC(=O)OC5CCCC5)C(=O)N4C3)cc(-c3csc(NC(=O)C(C)C)n3)nc2c1C (some centres unmarked)
Method: competition with immobilised ligand
Concentration: 1 µM
| target | observed | remaining binding [%] |
| --- | --- | --- |
| Epidermal growth factor receptor (EGFR, Homo sapiens, UniProt P00533, L858R) | cell-free assay | 100 |
| Serine/threonine-protein kinase Nek3 (NEK3, Homo sapiens, UniProt P51956) | cell-free assay | 76 |
| Mitogen-activated protein kinase kinase kinase 15 (MAP3K15, Homo sapiens, UniProt Q6ZN16) | cell-free assay | 70 |
| Tyrosine-protein kinase TXK (TXK, Homo sapiens, UniProt P42681) | binding | 86 |
| Maternal embryonic leucine zipper kinase (MELK, Homo sapiens, UniProt Q14680) | cell-free assay | 44 |
| Serine/threonine-protein kinase SBK1 (SBK1, Homo sapiens, UniProt Q52WX2) | cell-free assay | 98 |
| Casein kinase I isoform delta (CSNK1D, Homo sapiens, UniProt P48730) | cell-free assay | 100 |
| Glycogen synthase kinase-3 beta (GSK3B, Homo sapiens, UniProt P49841) | cell-free assay | 100 |
| Serine/threonine-protein kinase/endoribonuclease IRE1 (ERN1, Homo sapiens, UniProt O75460) | cell-free assay | 79 |
| Receptor-type tyrosine-protein kinase FLT3 (FLT3, Homo sapiens, UniProt P36888, D835V/ITD) | cell-free assay | 71 |
| Bone morphogenetic protein receptor type-1B (BMPR1B, Homo sapiens, UniProt O00238) | cell-free assay | 77 |
| Tyrosine-protein kinase ABL1, non-phosphorylated (ABL1, Homo sapiens, UniProt P00519, F317L) | cell-free assay | 75 |
| Ephrin type-A receptor 7 (EPHA7, Homo sapiens, UniProt Q15375) | cell-free assay | 100 |

Block 2
Target: RING finger protein unkempt homolog, zinc fingers 1-6, GST-SBP tag (UNK, Homo sapiens, UniProt Q9C0B0, residues 30-357)
Sequence of UniProt Q9C0B0 (30-357, looked up): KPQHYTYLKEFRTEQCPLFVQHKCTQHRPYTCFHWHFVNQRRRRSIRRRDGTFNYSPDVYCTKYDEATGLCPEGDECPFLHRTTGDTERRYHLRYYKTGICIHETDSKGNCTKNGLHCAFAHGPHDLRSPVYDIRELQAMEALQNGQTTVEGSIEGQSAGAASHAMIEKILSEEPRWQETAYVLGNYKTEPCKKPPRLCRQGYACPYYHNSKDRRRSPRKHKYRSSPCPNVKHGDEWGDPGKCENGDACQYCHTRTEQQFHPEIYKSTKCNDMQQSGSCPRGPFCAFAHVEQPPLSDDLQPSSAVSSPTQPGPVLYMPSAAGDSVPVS
Method: RNA Bind-n-Seq
Molecule type: RNA
Medium: in vitro
Concentration: not given
Notes: RNA with constant flanks, human and mouse sites, ends assumed
Relative to: input RNA pool
Reading: higher = stronger binding
Constant ends, left off below: GGGAGUUCUACAGUCCGACGAUC … CAACAGAGGAUUGAGCAUCA
| Sequence | bound/input enrichment [ratio] |
| --- | --- |
| CUUGUGCAUGCCCCACCUAUGCAACUGGGAUUCCCAUCCCUGCACUCGUUCAUCAAGGAACAUAGUCUUCAGGUAUCCCCCAGCUUAGAGAAAGGGGCUAAGGCAGACACAGGCCUUGAU | 0.262 |
| GUGGUGGCCAUAGGAACGCACUCAGGCAGGUGGUUUGUUCUGGAUGCAGAAACCAGAGAUCUAGUUUCUAUCCACACAGACGGGAAUGAACAGCUCUCUGUGAUGCGCUACUCAAUAGAU | 0.219 |
| UUUAUGUAUAUGAGUACACUGCAGCUGUACAGAUGGUUAUGAGCCAUCGUGGUUGCUGAGAAUAGAACUCAAGACCUCUGCUUGCUCAGCCCCGCUCCCUCGCUGUGUCCCAAAGAUUUA | 0.426 |
| UUGGAUGUGACAGUGCAGUCCUUUGGAUGGUCCGAUAGAGCAAAGGCAAAAACAGAUAACAUAGCAAGAAUUUACCAGCCCAAGCGUUAUGCUCUGUCGCCCAAGACAACAGUCACAUUG | 0.125 |
| GCAUCUAUCGAGUUUGCAAUGUCACAACCUCUCUGAUCUUGUGCUCAGCAUGAUUCUUUAAUAGAAGUUUUAUUUUUUCGUGCACUCUGCUAAUCAUGUGGGUGAGCCAGUGGAACAGCG | 0.455 |
| AAAAGAUCCAGAAGGAUUUGUUGGGCAUCCAGUAAAUGCAUUCAAAUUAAUGAAACGUCUGAAUACUGAGUGGAGUGAGUUGGAGAAUCUGGUCCUUAAGGAUAUGUCAGAUGGCUUUAU | 0.152 |
| GGCUUUUCCCAGUCCUUCACGCAAGAGCAAGUAGCUGAUAUUGACGGGCAGUAUGCAAUGACUAGGGCUCAGAGGGUCCGAGCUGCCAUGUUCCCUGAGACGCUAGAUGAGGGCAUGCAG | 0.194 |
| UAUGUGCAUAUAUAUGCAUGUUGUCAGUUAUUGUCUCUCAGACCUAUUUAAUUGUACUUUAUUUCAGGCCCCAAUCCUUUGAUUUACUCAGGUUAUCUUCCUGACUCUGAACUACUUCUA | 0.861 |

Block 3
Structure (SMILES): COc1ccc(Cl)cc1NC(=O)Nc1cc(C)nc2ccccc12
Observed: enzyme activity
Mode: inhibitor
Concentration: 0.5 µM
Relative to: control
| target | remaining activity [%] |
| --- | --- |
| Tyrosine-protein kinase JAK3 (JAK3, Homo sapiens, UniProt P52333) | 103 |
| Fibroblast growth factor receptor 3 (FGFR3, Homo sapiens, UniProt P22607) | 96.3 |
| Serine/threonine-protein kinase ULK2 (ULK2, Homo sapiens, UniProt Q8IYT8) | 106 |

Block 4
Molecule: IAA27 (Arabidopsis thaliana, UniProt Q9ZSY8)
Sequence of UniProt Q9ZSY8 (whole entry, looked up): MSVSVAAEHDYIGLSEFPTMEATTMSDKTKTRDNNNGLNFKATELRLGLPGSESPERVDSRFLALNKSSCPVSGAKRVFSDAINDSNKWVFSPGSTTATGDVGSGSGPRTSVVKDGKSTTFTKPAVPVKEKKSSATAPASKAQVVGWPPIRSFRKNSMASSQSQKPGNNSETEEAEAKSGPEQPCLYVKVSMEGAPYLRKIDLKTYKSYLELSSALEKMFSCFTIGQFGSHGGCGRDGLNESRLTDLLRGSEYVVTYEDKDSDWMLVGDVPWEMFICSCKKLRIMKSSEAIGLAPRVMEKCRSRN
Method: two-hybrid
Reading: higher = firmer interaction
| partner | notes | relative to | positive tests |
| --- | --- | --- | --- |
| IAA34 (Arabidopsis thaliana, UniProt Q9C5X0) | – | out of 4 tests | 4 |
| ARF1 538-665 (Arabidopsis thaliana, UniProt Q8L7G0) | – | out of 4 tests | 0 |
| ARF13 (Arabidopsis thaliana, UniProt Q9FX25) | – | out of 2 tests | 0 |
| IAA29 (Arabidopsis thaliana, UniProt Q93WC4) | – | out of 4 tests | 1 |
| IAA32 (Arabidopsis thaliana, UniProt Q8RYC6) | – | out of 4 tests | 1 |
| ARF5 788-902 (Arabidopsis thaliana, UniProt P93024) | – | out of 2 tests | 2 |
| IAA30 (Arabidopsis thaliana, UniProt Q9M1R4) | weak activation fusion | out of 4 tests | 2 |
| ARF8 699-811 (Arabidopsis thaliana, UniProt Q9FGV1) | – | out of 4 tests | 2 |

Excerpt of the above (block 1):
| target | observed | remaining binding [%] |
| --- | --- | --- |
| Casein kinase I isoform delta (CSNK1D, Homo sapiens, UniProt P48730) | cell-free assay | 100 |
| Glycogen synthase kinase-3 beta (GSK3B, Homo sapiens, UniProt P49841) | cell-free assay | 100 |
| Serine/threonine-protein kinase/endoribonuclease IRE1 (ERN1, Homo sapiens, UniProt O75460) | cell-free assay | 79 |
